Results collected from several papers.
± gives the spread as reported. Values after ≈ are worked out from the molar mass of the structure shown.

Compound	organism	assay	system	conditions	how to read	measurement	value
O=[N+]([O-])c1ccc(CSc2nnc(C34CC5CC(CC(C5)C3)C4)n2-c2ccccc2)cc1	Bacillus subtilis	–	IFO 3007	200 µg/disc, 24 h, 37 °C	–	inhibition zone diameter	23 mm
COCCOc1ccc2cc1S(=O)(=O)NCCCNc1nc(ncc1-c1ccc(F)c(OC)c1)N2	Dengue virus 2	viral replication, luciferase reporter	Huh-7, DENV-2-Rluc	1, 3 or 10 µM	–	antiviral activity	no effect
Oc1ccc(Cl)cc1-c1nc2cc(C(F)(F)F)ccc2[nH]1	Klebsiella pneumoniae	colistin potentiator	B9	5 µM	–	MIC of colistin	0.25 µg/mL
O=C(CCCN1C(=O)c2cccc3cccc(c23)C1=O)NO	Cryptosporidium parvum	–	–	2 to 10 µM, 90 min, sporozoites	–	histone H3K9 deacetylation	inhibited
FC(F)(F)c1cc(CSc2nnc(C34CC5CC(CC(C5)C3)C4)n2-c2ccccc2)cc(C(F)(F)F)c1	Micrococcus luteus	microbial growth, disc diffusion	IFO3232	200 µg/disc, 24 h	–	inhibition zone	21 mm
CC(C)CSC(=S)N1CCN(C(=O)/C=C/c2coc3ccccc3c2=O)CC1	tomato spotted wilt virus	viral infection, half-leaf method	Nicotiana glutinosa	500 µg/mL	–	inactivation effect	50.7 ± 7.5%
CCN(CC)CCSc1nnc(C23CC4CC(CC(C4)C2)C3)n1C	Micrococcus luteus	microbial growth, disc diffusion	IFO3232	200 µg/disc, 24 h	–	inhibition zone	10 mm
CC(=O)c1c(O)c(C)c(O)c2c1OC1=CC(=O)/C3=C(/C)N[C@H](C(=O)O)CC1=CC=CC=C[C@]2(C)C3=O	Trichophyton rubrum	broth microdilution	LM 237	168 h	–	MIC99	405 µM (≈ 199 µg/mL)
Cc1ncc([N+](=O)[O-])n1CCOCc1nnc(SCC(=O)c2ccc([N+](=O)[O-])cc2)o1	Providencia	–	DMSO	60 µg/mL, 24 h, 37 °C	–	inhibition zone diameter	15 to 20 mm
c1ccc(-c2nc(-c3ccc4ccccc4c3)c[nH]2)cc1	Schistosoma mansoni	–	adult male worms	25 µM	–	worm killing	0%
COc1ccc(S(=O)(=O)NCc2c[nH]nc2-c2cccs2)cc1	Plasmodium falciparum	parasite growth	DD2	blood stage	–	EC90	1150 nM
O=C(O)c1ccc(/C=C2\SC(=S)N(Cc3cccc(C(F)(F)F)c3)C2=O)cc1	Salmonella	refers to: IL-1β	LPS-primed mouse BMDM	concentration not given	–	NLRC4 inflammasome activation	no effect
CCN(CC)Cc1ccc(CNC(=O)COc2ccccc2C2SCCS2)cc1	Zika virus MR766	–	ZIKV-infected Vero cells	25 µM, 3 days, unit not given	baseline: virus-infected untreated cells, above 1 protective	viability	> 1
Cc1ncc([N+](=O)[O-])n1CCOCc1nnc(SCC(=O)c2ccc(Cl)cc2)o1	Providencia	–	DMSO	60 µg/mL, 24 h, 37 °C	–	inhibition zone diameter	15 to 20 mm
CC(=NNC(=N)N)c1nnn(-c2ccc(C#CC3(O)CCCCC3)cc2)c1C	Klebsiella pneumoniae	–	ATCC 13883	concentration not given	–	inhibition zone diameter	28.7 ± 0.47 mm
Fc1ccc2c(c1)c1nc3ccc(Br)cc3c-1cn2Cc1cn(-c2ccccc2I)nn1	Giardia duodenalis trophozoites	UHPLC-Q-TOF-MS, refers to: peptide Val-Leu-Glu-Ser-Phe	–	IC50, 0.1012 h	baseline: 0.25% DMSO	fold change	-22.8
COC1C=COC2(C)Oc3c(C)c(O)c4c(c3C2=O)C2=NC3(CCN(CC(C)C)CC3)NC2=C(NC(=O)C(C)=CC=CC(C)C(O)C(C)C(O)C(C)C(OC(=O)Nc2cnccn2)C1C)C4=O (stereo not shown)	Mycobacteroides abscessus	–	76 clinical isolates	3 subspecies	–	MIC90	0.31 µM (≈ 0.287 µg/mL)
CC(=O)N[C@H](CCCCN)C(=O)N[C@H](CC(C)C)C(=O)N[C@H](CCCCN)C(=O)N[C@H](CO)C(=O)N[C@H](CC(C)C)C(=O)N[C@H](CC(C)C)C(=O)N[C@H](CCCCN)C(=O)N[C@@H](C(=O)N[C@H](CC(C)C)C(=O)N[C@H](CO)C(=O)N[C@H](CCCCN)C(=O)N[C@H](C)C(=O)N[C@H](CCCCN)C(=O)N[C@H](CCCCN)C(=O)N[C@H](CCCCN)C(=O)N[C@H](CCCCN)C(=O)N[C@H](CC(C)C)C(=O)N[C@H](CCCCN)C(=O)N[C@@H](C(=O)N[C@H](CC(C)C)C(=O)N[C@H](CC(C)C)C(=O)N[C@H](CCCCN)C(=O)N[C@H](C)C(=O)N[C@H](CC(C)C)C(=O)N[C@H](CO)C(=O)N[C@H](CCCCN)C(N)=O)[C@H](C)O)[C@H](C)O	Acinetobacter baumannii	–	759, Mueller-Hinton broth	24 h, 37 °C	–	MIC	0.7 µM (≈ 2.09 µg/mL)
COc1ccc(CNc2nc([C@H]3CC[C@H](C(=O)O)CC3)nc3sc4ccccc4c23)cc1Cl	Cryptosporidium parvum	parasite growth, immunofluorescence microscopy	HCT-8, Iowa	48 h post infection, compound added at 3 h	–	EC50	910 nM
Oc1cc(C(F)(F)F)ccc1-c1nc2c(C(F)(F)F)cc(C(F)(F)F)cc2[nH]1	Klebsiella pneumoniae	colistin potentiator	KP F3, colistin-resistant	5 µM	–	colistin MIC	1 µg/mL
O=[N+]([O-])/C=C/c1ccc(Br)o1	Leishmania braziliensis	motility arrest	promastigotes	72 h, 26 °C	–	minimal parasiticidal concentration	2.8 ± 0.4 µM
CCSC(=S)N1CCN(C(=O)/C=C/c2coc3ccccc3c2=O)CC1	tomato spotted wilt virus	viral infection, half-leaf method	Nicotiana glutinosa	500 µg/mL	–	protective effect	52.5 ± 5.6%
NNc1n[nH]c(=O)c2ccccc12	Leishmania braziliensis	parasite growth, MTT	–	25 µM, promastigote	–	inhibition	18.6%

Compound	organism	assay	system	conditions	how to read	measurement	value
CCN(CC)CCCSC(=S)N1CCN(C(=O)/C=C/c2coc3ccc(F)cc3c2=O)CC1	tomato spotted wilt virus	viral infection, half-leaf method	Nicotiana glutinosa	500 µg/mL	–	curative effect	58 ± 5.6%
CCN(CC)CCn1nc(C23CC4CC(CC(C4)C2)C3)n(C)c1=S	Micrococcus luteus	microbial growth, disc diffusion	IFO3232	200 µg/disc, 24 h	–	inhibition zone	17 mm
CC(=O)c1c(O)c(C)c(O)c2c1OC1=CC(=O)/C3=C(/C)N[C@H](C(=O)O)CC1=CC=C(O)C=C[C@@]2(C)C3=O	Trichophyton rubrum	broth microdilution	LM 237	168 h	–	MIC99	394 µM (≈ 200 µg/mL)
CCCCCCCCCC1CC2CCC3CC(CCCCCCCCC)NC(=N1)N23 (stereo not shown)	Candida glabrata	fungal growth	ATCC 90030	–	–	MFC	2.99 µM (≈ 1.25 µg/mL)
N#C/C(=C\c1ccc(O)c(O)c1)C(=O)c1ccc(O)c(O)c1	Strongylocentrotus purpuratus	inhibitor	egg homogenate	concentration not given, together with: cADPR 300 nM	–	Ca2+ release	inhibited
CCN(CC)CCCSC(=S)N1CCN(C(=O)/C=C/c2coc3ccc(OC)cc3c2=O)CC1	tomato spotted wilt virus	virus inactivation, half-leaf method	Nicotiana glutinosa	tested 31.25 to 500 µg/mL	–	EC50	154 ± 9.6 µg/mL
CCC12CCc3c(c4ccccc4n3C)CCN(CC3OC31)C2 (stereo not shown)	Danio rerio	western blot	larvae	25 µM, together with: LPS	baseline: LPS alone	Nrf2 protein level	~2 fold
CN(C)CCSC(=S)N1CCN(C(=O)/C=C/c2coc3cc(F)ccc3c2=O)CC1	tomato spotted wilt virus	viral infection, half-leaf method	Nicotiana glutinosa	500 µg/mL	–	curative effect	60.3 ± 6.7%
COc1cc([C@@H]2c3cc4c(cc3[C@@H](C=C(C)C)[C@H]3COC(=O)[C@@H]23)OCO4)cc(OC)c1OC	Dengue virus 2	viral replication, qPCR	–	72.4 µM, 6 and 12 hpi, together with: POD 0.1 µM	–	negative-strand RNA copies	decreased
c1ccc(CN2CCOCCOCCN(CCCCCCCCN3CCOCCOCCN(CCCCCCCCN4CCOCCOCCN(Cc5ccccc5)CCOCCOCC4)CCOCCOCC3)CCOCCOCC2)cc1	Klebsiella pneumoniae	tetracycline MIC, checkerboard	ATCC BAA-2146	half MIC, together with: tetracycline	baseline: MIC alone over combination	fold enhancement	40 fold
COc1ccc2c(=O)c(/C=C/C(=O)N3CCN(C(=S)SCCN(C)C)CC3)coc2c1	tomato spotted wilt virus	viral infection, half-leaf method	Nicotiana glutinosa	500 µg/mL	–	curative effect	57.4 ± 5.5%
Oc1cc(I)ccc1-c1nc2c(Cl)cc(Cl)cc2[nH]1	Klebsiella pneumoniae	colistin potentiator	B9	5 µM	–	MIC of colistin	0.5 µg/mL
O=C1CC(c2ccc(O)cc2)Oc2cc(O)cc([O][Ga+][O]c3cc(O)cc4c3C(=O)CC(c3ccc(O)cc3)O4)c21 (stereo not shown)	Pseudomonas aeruginosa	RNA-seq	PAO1	4 µM, 4 h, out of 38 genes	–	number of downregulated iron homeostasis genes	37
C[C@H]1CN(C(=O)c2cn(-c3ccnc(N)n3)c3cc(C#CC4(O)CCCCC4)ccc23)CCN1	mouse	cell migration and invasion, Transwell	B16-F10	concentration not given	–	migrating and invading cells	decreased
Cn1c(SCCN2CCCC2)nnc1C12CC3CC(CC(C3)C1)C2	Bacillus subtilis	–	IFO 3007	200 µg/disc, 24 h, 37 °C	–	inhibition zone diameter	17 mm
Oc1ccc(C(F)(F)F)cc1-c1nc2c(Cl)cc(Cl)cc2[nH]1	Klebsiella pneumoniae	colistin potentiator	KP H2, colistin-resistant	5 µM	–	colistin MIC	1 µg/mL
CCN(CC)CCSC(=S)N1CCN(C(=O)/C=C/c2coc3cc(F)ccc3c2=O)CC1	tomato spotted wilt virus	viral infection, half-leaf method	Nicotiana glutinosa	500 µg/mL	–	protective effect	58.8 ± 6.3%
CC(O)(CNC(=O)Nc1cc(-c2ccccc2)ns1)c1ccco1 (stereo not shown)	Zika virus MR766	–	ZIKV-infected Vero cells	25 µM, 3 days, unit not given	baseline: virus-infected untreated cells, above 1 protective	viability	> 1
Brc1ccc(-c2c[nH]c(-c3ccccn3)n2)cc1	Schistosoma mansoni	–	mature male and female worms	5 µM, 96 h	–	worm killing	0%
COc1ccccc1N1CCN(Cn2nc(C34CC5CC(CC(C5)C3)C4)n(-c3ccccc3)c2=S)CC1	Micrococcus luteus	microbial growth, disc diffusion	IFO3232	200 µg/disc, 24 h	–	inhibition zone	18 mm
CCCC(=O)OC1O[C@@H]2O[C@@]3(C)CC[C@H]4[C@H](C)CCC([C@H]1C)[C@@]24OO3 (stereo partly shown)	Danio rerio	intersegmental vessel formation, inhibitor	Tg(fli1:EGFP), embryos	below toxic concentration	–	lowest effective concentration	1 µg/mL
Fc1ccc(CSc2nnc(C34CC5CC(CC(C5)C3)C4)n2-c2ccccc2)cc1	Micrococcus luteus	microbial growth, disc diffusion	IFO3232	200 µg/disc, 24 h	–	inhibition zone	14 mm
COc1ccc2occ(/C=C/C(=O)N3CCN(C(=S)SCCCN(C)C)CC3)c(=O)c2c1	tomato spotted wilt virus	viral infection, half-leaf method	Nicotiana glutinosa	500 µg/mL	–	protective effect	64.7 ± 2.5%

A few entries again:
Compound	organism	assay	system	conditions	how to read	measurement	value
Oc1cc(C(F)(F)F)ccc1-c1nc2c(C(F)(F)F)cc(C(F)(F)F)cc2[nH]1	Klebsiella pneumoniae	colistin potentiator	KP F3, colistin-resistant	5 µM	–	colistin MIC	1 µg/mL
O=[N+]([O-])/C=C/c1ccc(Br)o1	Leishmania braziliensis	motility arrest	promastigotes	72 h, 26 °C	–	minimal parasiticidal concentration	2.8 ± 0.4 µM
CCSC(=S)N1CCN(C(=O)/C=C/c2coc3ccccc3c2=O)CC1	tomato spotted wilt virus	viral infection, half-leaf method	Nicotiana glutinosa	500 µg/mL	–	protective effect	52.5 ± 5.6%
NNc1n[nH]c(=O)c2ccccc12	Leishmania braziliensis	parasite growth, MTT	–	25 µM, promastigote	–	inhibition	18.6%
CCN(CC)CCCSC(=S)N1CCN(C(=O)/C=C/c2coc3ccc(F)cc3c2=O)CC1	tomato spotted wilt virus	viral infection, half-leaf method	Nicotiana glutinosa	500 µg/mL	–	curative effect	58 ± 5.6%
CCN(CC)CCn1nc(C23CC4CC(CC(C4)C2)C3)n(C)c1=S	Micrococcus luteus	microbial growth, disc diffusion	IFO3232	200 µg/disc, 24 h	–	inhibition zone	17 mm
CC(=O)c1c(O)c(C)c(O)c2c1OC1=CC(=O)/C3=C(/C)N[C@H](C(=O)O)CC1=CC=C(O)C=C[C@@]2(C)C3=O	Trichophyton rubrum	broth microdilution	LM 237	168 h	–	MIC99	394 µM (≈ 200 µg/mL)
